Assay results collected from several papers.
Each line is one published result; not all experiments were run side by side. ± marks the error that the study gave.

CC(C)C[C@H](NC(=O)C[C@H](O)[C@H](CC(C)C)NC(=O)[C@H](Cc1c[nH]cn1)NC(=O)CNC(=O)[C@@H](NC(=O)[C@H](C)NC(=O)[C@H](Cc1c[nH]c2ccccc12)NC(=O)[C@H](CCC(N)=O)NC(=O)[C@@H](Cc1ccccc1)NC(=O)COCCOCCNC(=O)CCC(C(=O)O)N1CCN(CC(=O)O)CCN(CC(=O)O)CC1)C(C)C)C(N)=O (some centres unmarked) [lutetium-177 labelled]
tissue uptake (BALB/c nu/nu mice, female, carcass incl. GI tract contents; intravenous, 50 pmol, 24 h): 0.4 ± 0.2 %ID

N=C(N)NCCC[C@@H](NC(=O)CCOCCOCCNC(=O)[C@H](CCCCNC(=O)CC[C@H](NC(=O)c1ccc(NCc2cnc3nc(N)[nH]c(=O)c3n2)cc1)C(=O)O)NC(=O)CO/N=C/[C@H](F)[C@@H](O)[C@H](O)[C@H](O)CO)C(=O)NCC(=O)N[C@H](CC(=O)O)C(N)=O [fluorine-18 labelled]
stability time (radio-HPLC; room temperature): ≥ 4 h

C[C@@H](O)[C@@H](CO)NC(=O)[C@@H](CCCNC(=N)N)NC(=O)[C@@H]1CCCN1C(=O)[C@@H]1CSSC[C@H](NC(=O)[C@H](Cc2ccccc2)NC(=O)CN2CCN(CC(=O)O)CCN(CC(=O)O)CCN(CC(=O)O)CC2)C(=O)N[C@@H](Cc2ccc(O)cc2)C(=O)N[C@@H](Cc2ccccc2)C(=O)N[C@@H](CCC(N)=O)C(=O)N[C@@H](CC(N)=O)C(=O)N1 [gallium-68 labelled]
radiochemical purity (PBS; 2 h, 37 °C): > 99%

CC(C)C[C@H](NC(=O)C[C@H](O)[C@H](CC(C)C)NC(=O)[C@H](Cc1c[nH]cn1)NC(=O)CNC(=O)[C@@H](NC(=O)[C@H](C)NC(=O)[C@H](Cc1c[nH]c2ccccc12)NC(=O)[C@H](CCC(N)=O)NC(=O)[C@@H](Cc1ccccc1)NC(=O)COCCOCCNC(=O)CCC(C(=O)O)N1CCN(CC(=O)O)CCN(CC(=O)O)CCN(CC(=O)O)CC1)C(C)C)C(N)=O (some centres unmarked) [lutetium-177 labelled]
tissue uptake (BALB/c nu/nu mice, PC-3 xenograft tumour; 100 pmol, 1 h, together with: PA 300 µg): 16.7 ± 1.2 %ID/g

O=C(O)CC[C@H](NC(=O)N[C@@H](CCCCNC(=O)[C@H](Cc1ccc2ccccc2c1)NC(=O)CCCCCNC(=O)CN1CCN(CC(=O)O)CCN(CC(=O)O)CCN(CC(=O)O)CC1)C(=O)O)C(=O)O [gallium-68 labelled]
SUVmean (PET/CT; mouse, 22Rv1 xenograft, tumour; intravenous, 3.7 MBq, 4 h): 0.35 ± 0.02 SUV

CC(C)[C@H](NC(=O)[C@@H](NC(=O)CCCc1cn(CC(O)CN2CCN(CC(=O)O)CCN(CC(=O)O)CCN(CC(=O)O)CC2)nn1)[C@@H](C)O)C(=O)N[C@@H](CCCNC(=N)N)C(=O)N[C@H](C(=O)N[C@@H](CO)C(=O)N[C@@H](C)C(=O)N[C@@H](CC(=O)O)C(=O)O)[C@@H](C)O (some centres unmarked)
clearance (healthy male humans, plasma; intravenous bolus, 0.08 mmol/kg): 1.02 ± 0.19 mL/min/kg

CCCCCCCCCCCCCCCCCC(=O)N[C@@H](CCCNC(=N)N)C(=O)N[C@@H](CC(=O)N[C@@H](Cc1ccccc1)C(=O)O)c1cccc2ccccc12
stability time (HPLC, mass spectrometry; human serum): 24 h

CC(C)[C@H](NC(=O)[C@H](Cc1ccc(O)cc1)NC(=O)[C@H](Cc1ccc(O)cc1)NC(=O)[C@@H]1CCCN1C(=O)[C@H](CCC(=O)O)NC(=O)[C@H](CCC(=O)O)NC(=O)[C@H](Cc1c[nH]c2ccccc12)NC(=O)[C@@H]1CCCN1C(=O)[C@@H](NC(=O)[C@H](CCC(N)=O)NC(=O)c1ccc2c(c1)C(=O)OC21c2ccc(O)cc2Oc2cc(O)ccc21)C(C)C)C(=O)N[C@H](C(=O)N[C@@H](CCCCN)C(=O)N[C@@H](CCCCN)C(=O)N[C@@H](CO)C(=O)N[C@@H](CO)C(=O)NCC(=O)NCC(N)=O)C(C)C
plasma concentration (human, plasma; intravenous infusion, 189.6 mg, 0.25 h): 15100 ng/mL

For quick reference, copied from above:
CC(C)C[C@H](NC(=O)C[C@H](O)[C@H](CC(C)C)NC(=O)[C@H](Cc1c[nH]cn1)NC(=O)CNC(=O)[C@@H](NC(=O)[C@H](C)NC(=O)[C@H](Cc1c[nH]c2ccccc12)NC(=O)[C@H](CCC(N)=O)NC(=O)[C@@H](Cc1ccccc1)NC(=O)COCCOCCNC(=O)CCC(C(=O)O)N1CCN(CC(=O)O)CCN(CC(=O)O)CC1)C(C)C)C(N)=O (some centres unmarked) [lutetium-177 labelled]
tissue uptake (BALB/c nu/nu mice, female, carcass incl. GI tract contents; intravenous, 50 pmol, 24 h): 0.4 ± 0.2 %ID
